Published values from different studies.
Each line is one published result; not all experiments were run side by side.
Organism: Bacillus subtilis

c1ccc(CCNC2CCCc3c2[nH]c2ccc(C4CCCCC4)cc32)cc1 (centres unmarked) — MIC (microbial growth, broth dilution; ATCC6051): 3 µg/mL
CN[C@@H]1[C@H](O)[C@H](NC)[C@H]2O[C@]3(O)[C@H](O[C@@H]2[C@H]1O)O[C@H](C)C[C@@]3(O)CNCc1ccc(Cl)cc1 — MIC (ATCC 23857): 3.1 µg/mL
CC[C@H](C)[C@H](NC(=O)[C@H](CCCCN)NC(=O)[C@H](CC(N)=O)NC(=O)[C@H](Cc1c[nH]c2ccccc12)NC(=O)[C@H](Cc1ccccc1)NC(=O)[C@H](CCCCN)NC(=O)[C@H](CCCCNC(=N)N)NC(=O)[C@H](CC(C)C)NC(=O)[C@H](Cc1c[nH]c2ccccc12)NC(=O)[C@H](CCCCN)NC(=O)[C@H](CCCCNC(=N)N)NC(=O)[C@H](CC(C)C)NC(=O)CNC(C)=O)C(=O)N[C@@H](CCCCN)C(=O)N[C@@H](CCCCNC(=N)N)C(N)=O — MIC (broth microdilution; ATCC 6633): 3.12 µM
NCCCC[C@H](NC(=O)[C@@H]1CSCC(=O)N[C@@H](CCCCN)C(=O)N[C@@H](Cc2ccccc2)C(=O)N[C@@H](CCCCN)C(=O)NCCCC[C@@H]2NC(=O)[C@H](CCCCN)NC(=O)[C@H](Cc3ccccc3)NC(=O)[C@H](CCCCN)NC(=O)CSC[C@H](NC(=O)[C@H](Cc3ccccc3)NC(=O)[C@H](Cc3ccccc3)NC(=O)[C@H](CCCCN)NC2=O)C(=O)N[C@@H](Cc2ccccc2)C(=O)N[C@@H](Cc2ccccc2)C(=O)N[C@@H](Cc2ccccc2)C(=O)N1)C(N)=O — MIC (BR 151; 18 h): 2 µg/mL
CCCCCCCCCCCCCCCCCCSCC1OC(OC2C(N)CC(N)C(OC3OC(CN)C(O)CC3N)C2O)C(O)C(N)C1O (centres unmarked) — MIC (168 AAC(6')/APH(2'') plasmid): > 150 µg/mL
CC[C@H](C)[C@H](NC(=O)[C@@H](Cc1ccccc1)NC)C(=O)OC[C@H](N)C(=O)N[C@H](CCCNC(=N)N)C(=O)N[C@@H](C(=O)N[C@H](C(=O)OC[C@H](N)C(=O)N[C@H]1C(=O)N[C@@H](C)C(=O)N[C@@H](CC(C)C)C(=O)N[C@@H]([C@@H](C)CC)C(=O)O[C@H]1C)[C@@H](C)CC)[C@@H](C)CC — MIC (broth microdilution; ATCC 6051, Mueller-Hinton broth; 16 h, 37 °C): 0.0156 to 0.0312 µg/mL
CN1C(=O)[C@@H]2NC(=O)[C@@H]3NC(=O)[C@@H](c4ccc(O)cc4)NC(=O)[C@H](NC(=O)C(NCc4cccc(F)c4F)c4ccc(O)cc4)Cc4c[nH]c5cc(ccc45)-c4cc3cc(c4O)Oc3ccc(cc3)C[C@H]1C(=O)N[C@@H](C(=O)O)c1ccc(O)c(c1)Oc1ccc2cc1 (some centres unmarked) — MIC (168, Mueller-Hinton broth): 8 µg/mL
N=C(N)NCCC[C@@H]1NC(=O)[C@H](CCCNC(=N)N)NC(=O)[C@H](CCCNC(=N)N)NC(=O)[C@H](CCCNC(=N)N)NC(=O)[C@H](Cc2c[nH]c3ccccc23)NC(=O)[C@H](CCCNC(=N)N)NC(=O)[C@H](CCCNC(=N)N)NC(=O)[C@@H](N)CCCCn2cc(nn2)C[C@@H](C(N)=O)NC1=O — MIC (CMCC 63501; 24 h, 37 °C): 15.6 µg/mL
CN(C)CCCNCCCNC(=O)[C@@H]1NC(=O)[C@@H]2Cc3ccc(cc3)Oc3cc4cc(c3O)-c3ccc5c(c[nH]c5c3)C[C@@H](NC(=O)C(N)c3ccc(O)cc3)C(=O)N[C@H](c3ccc(O)cc3)C(=O)N[C@H]4C(=O)N[C@@H](C(=O)N2C)c2ccc(cc2)Oc2cc1ccc2O (some centres unmarked) — MIC (168, Mueller-Hinton broth): 8 µg/mL
CC(C)C[C@H](NC(=O)[C@H](CC(C)C)NC(=O)[C@H](CCCCN)NC(=O)[C@@H]1CCCN1C(=O)[C@H](CC(C)C)NC(=O)[C@H](CC(C)C)NC(=O)[C@H](CCCCN)NC(=O)[C@H](CC(C)C)NC(=O)[C@H](CC(C)C)NC(=O)[C@H](CO)NC(=O)CNC(=O)[C@H](CC(C)C)NC(=O)[C@@H](N)CC(C)C)C(N)=O — MIC (broth microdilution): 3.12 µM
CC(C)C[C@@H]1NC(=O)CSC[C@@H]2NC(=O)[C@H](CCCCN)NC(=O)[C@H](CC(C)C)NC(=O)[C@H](CCCCN)NC(=O)[C@H](CCCCNC(=O)[C@H](CC(C)C)NC1=O)NC(=O)[C@H](CC(C)C)NC(=O)[C@H](CC(C)C)NC(=O)CSC[C@@H](C(=O)N[C@@H](CCCCN)C(N)=O)NC(=O)[C@H](CC(C)C)NC(=O)[C@H](CCCCN)NC(=O)[C@H](CCCCN)NC2=O — MIC (BR 151; 18 h): 64 µg/mL
CC[C@H](C)[C@H](N)C1=N[C@H](C(=O)N[C@@H](CC(C)C)C(=O)N[C@H](CCC(=O)O)C(=O)N[C@H](C(=O)N[C@H]2CCCCNC(=O)[C@H](CC(N)=O)NC(=O)[C@@H](CC(=O)O)NC(=O)[C@H](Cc3c[nH]cn3)NC(=O)[C@@H](Cc3ccc4ccccc4c3)NC(=O)[C@H]([C@@H](C)CC)NC(=O)[C@@H](CCCN)NC2=O)[C@@H](C)CC)CS1 — MIC (168; 18 h, 37 °C, with: ZnSO4 0.3 mM): 4 µg/mL
CC[C@@H](C)[C@@H](NC(=O)[C@@H](CCCCN)NC(=O)[C@H]1CCCN1C(=O)[C@H](NC(=O)[C@@H](CC(C)C)NC(=O)[C@@H](CCCCN)NC(=O)[C@@H](CC(C)C)NC(=O)[C@H](NC(=O)[C@@H](CO)NC(=O)CNC(=O)[C@@H](Cc1ccccc1)NC(=O)[C@H](N)Cc1ccccc1)C(C)C)[C@H](C)CC)C(=O)N[C@H](CC(C)C)C(N)=O — MIC (broth microdilution): 6.25 µM
CC(C)C[C@@H]1NC(=O)CSC[C@@H](C(=O)N[C@@H](CCCCN)C(N)=O)NC(=O)[C@H](CC(C)C)NC(=O)[C@H](CC(C)C)NC(=O)[C@H](CC(C)C)NC(=O)[C@@H]2CSCC(=O)N[C@@H](CC(C)C)C(=O)N[C@@H](CC(C)C)C(=O)N[C@@H](CCCCN)C(=O)N[C@@H](CCCCNC(=O)[C@H](CCCCN)NC(=O)[C@H](CC(C)C)NC1=O)C(=O)N[C@@H](CCCCN)C(=O)N[C@@H](CCCCN)C(=O)N[C@@H](CC(C)C)C(=O)N2 — MIC (BR 151; 18 h): 4 µg/mL
